# Measurements from different studies.
# Protocols differ between the studies behind these lines. “And” joins repeats or separate records; there may be more than shown. ± gives the spread as reported.
# UniProt Q16774, sequence (whole entry, unmodified, looked up): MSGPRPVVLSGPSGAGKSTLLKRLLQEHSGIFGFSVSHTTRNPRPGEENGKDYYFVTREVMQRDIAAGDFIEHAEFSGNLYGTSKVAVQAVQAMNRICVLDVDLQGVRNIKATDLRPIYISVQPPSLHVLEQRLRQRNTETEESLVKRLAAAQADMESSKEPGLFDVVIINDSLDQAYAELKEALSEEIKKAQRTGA
# UniProt P31641, sequence (whole entry, unmodified, looked up): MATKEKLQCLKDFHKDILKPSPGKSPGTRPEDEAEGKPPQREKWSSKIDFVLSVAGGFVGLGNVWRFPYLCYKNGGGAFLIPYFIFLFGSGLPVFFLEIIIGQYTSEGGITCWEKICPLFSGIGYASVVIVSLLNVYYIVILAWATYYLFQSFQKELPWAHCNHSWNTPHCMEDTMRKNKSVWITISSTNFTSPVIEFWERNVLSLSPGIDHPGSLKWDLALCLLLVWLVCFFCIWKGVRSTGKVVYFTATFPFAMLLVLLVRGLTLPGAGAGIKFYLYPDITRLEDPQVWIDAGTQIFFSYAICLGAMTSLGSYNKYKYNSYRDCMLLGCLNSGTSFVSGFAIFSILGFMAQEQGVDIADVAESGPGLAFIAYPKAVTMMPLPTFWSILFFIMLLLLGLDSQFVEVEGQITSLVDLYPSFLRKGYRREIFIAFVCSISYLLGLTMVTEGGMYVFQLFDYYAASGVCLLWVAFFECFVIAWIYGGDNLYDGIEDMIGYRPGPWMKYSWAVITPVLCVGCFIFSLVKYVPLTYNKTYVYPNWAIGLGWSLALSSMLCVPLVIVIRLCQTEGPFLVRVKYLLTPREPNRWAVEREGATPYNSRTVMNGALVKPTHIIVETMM
# UniProt Q7Z5P4, sequence (whole entry, looked up): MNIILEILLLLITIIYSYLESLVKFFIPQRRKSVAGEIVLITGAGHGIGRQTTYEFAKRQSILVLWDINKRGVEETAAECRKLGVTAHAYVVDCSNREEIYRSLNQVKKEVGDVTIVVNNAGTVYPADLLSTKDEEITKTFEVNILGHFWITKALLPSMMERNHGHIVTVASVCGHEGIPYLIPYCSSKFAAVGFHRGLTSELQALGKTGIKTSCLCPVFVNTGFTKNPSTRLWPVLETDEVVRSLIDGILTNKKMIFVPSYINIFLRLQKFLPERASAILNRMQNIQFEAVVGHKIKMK
# UniProt P51575, sequence (whole entry, unmodified, looked up): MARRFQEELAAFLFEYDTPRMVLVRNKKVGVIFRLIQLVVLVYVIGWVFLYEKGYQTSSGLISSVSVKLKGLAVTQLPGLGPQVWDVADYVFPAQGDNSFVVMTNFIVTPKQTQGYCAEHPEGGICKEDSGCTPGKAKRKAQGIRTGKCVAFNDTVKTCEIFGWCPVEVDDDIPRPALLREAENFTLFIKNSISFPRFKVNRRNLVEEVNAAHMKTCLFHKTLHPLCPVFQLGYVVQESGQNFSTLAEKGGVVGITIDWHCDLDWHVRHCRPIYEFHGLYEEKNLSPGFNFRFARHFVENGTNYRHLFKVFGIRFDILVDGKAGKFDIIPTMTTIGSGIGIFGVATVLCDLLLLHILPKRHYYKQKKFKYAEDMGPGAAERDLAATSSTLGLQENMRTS
# UniProt Q2NL67, sequence (whole entry, looked up): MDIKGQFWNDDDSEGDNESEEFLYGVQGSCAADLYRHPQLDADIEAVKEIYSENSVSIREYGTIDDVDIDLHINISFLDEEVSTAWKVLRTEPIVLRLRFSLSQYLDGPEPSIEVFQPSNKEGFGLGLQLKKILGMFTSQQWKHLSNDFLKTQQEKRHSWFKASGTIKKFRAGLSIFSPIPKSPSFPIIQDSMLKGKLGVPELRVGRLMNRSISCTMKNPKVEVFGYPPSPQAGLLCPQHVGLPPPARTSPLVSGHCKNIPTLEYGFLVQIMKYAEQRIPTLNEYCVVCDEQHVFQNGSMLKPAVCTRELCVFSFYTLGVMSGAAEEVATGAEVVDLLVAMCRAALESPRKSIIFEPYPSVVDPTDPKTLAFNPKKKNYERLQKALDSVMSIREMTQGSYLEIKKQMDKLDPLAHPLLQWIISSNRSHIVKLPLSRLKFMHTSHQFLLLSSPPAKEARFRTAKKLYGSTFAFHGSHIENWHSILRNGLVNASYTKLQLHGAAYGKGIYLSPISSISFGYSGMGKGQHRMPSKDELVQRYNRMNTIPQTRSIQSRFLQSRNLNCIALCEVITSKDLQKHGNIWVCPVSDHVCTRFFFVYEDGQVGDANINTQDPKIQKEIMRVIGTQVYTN
SMILES,target or system,assay,setting,how to read,measurement,result
NC(=O)c1ccc[n+]([C@@H]2O[C@H](COP(=O)([O-])OP(=O)(O)OC[C@H]3O[C@@H](n4cnc5c(NCCNC(=O)CCCCCNC(=O)CCCCCNC(=O)CCCC[C@@H]6SC[C@@H]7NC(=O)N[C@@H]76)ncnc54)[C@H](O)[C@@H]3O)[C@@H](O)[C@H]2O)c1,"PARP6 (Homo sapiens, UniProt Q2NL67)","substrate, DELFIA auto-modification",,,apparent Km,5 µM
Nc1nc2c(ncn2[C@@H]2O[C@H](COP(=O)(O)O)[C@@H](O)[C@H]2O)c(=O)[nH]1,"GUK1 (Homo sapiens, UniProt Q16774, S37A)","enzyme activity, NADH-coupled",1000 µM,,reaction rate,2.25 s⁻¹ and 2.3 s⁻¹ and 3.75 s⁻¹
COc1ccc(CC(=O)C(=O)O)cc1,Nostoc punctiforme,"substrate, Ellman CoA release",with: acetyl-CoA,,Km,310 ± 53 µM
Nc1ccc2cc3ccc(N)cc3nc2c1,"Chymotrypsinogen A, activated (alpha-chymotrypsin) (Bos taurus, UniProt P00766)",isothermal titration calorimetry,"concentration not given, 25 °C, with: 0.5 M N,N-dimethylglycine",,entropic contribution to binding,-15 ± 1.41 kcal/mol
Nc1ncnc2c1ncn2[C@@H]1O[C@H](COP(=O)(O)CP(=O)(O)OP(=O)(O)O)[C@@H](O)[C@H]1O,"P2X purinoceptor 1 (P2RX1, Homo sapiens, UniProt P51575, E122A)",calcium influx,31.6 nM,relative to: ionomycin response,calcium influx,0.475%
O=C(O)C(=O)Cc1ccc(O)cc1,Nostoc punctiforme,"substrate, Ellman CoA release",with: acetyl-CoA,,Km,40 ± 4.2 µM
[H]/N=C(/N)NCC(=O)O,"SLC6A6 (Homo sapiens, UniProt P31641, L306A)","binding, microscale thermophoresis","122 nM, room temperature, with: 50 nM labelled protein",higher = more binding,normalised MST signal,0.0535
C[C@H](O)c1ccc(NS(=O)(=O)c2ccc(OCC3CCC3)c(Cl)c2)c2nn(C)cc12,"17-beta-hydroxysteroid dehydrogenase 13 (Homo sapiens, UniProt Q7Z5P4)","substrate, NADH fluorescence",,,Vmax,0.02 nM NADH/s/nM enzyme
COc1cc(Nc2ncc3c(n2)-c2ccc(Cl)cc2C(c2c(F)cccc2OC)=NC3)ccc1C(=O)O,PDK1,kinase activity,1 µM,,remaining activity,72%
